Assay results pooled from the literature.
Each line is one published result; not all experiments were run side by side. Several values in a cell are separate wells, animals, samples, runs or records. Values after ≈ are worked out from the molar mass of the structure shown.
Sequence of UniProt Q9UBE8 (whole entry, looked up): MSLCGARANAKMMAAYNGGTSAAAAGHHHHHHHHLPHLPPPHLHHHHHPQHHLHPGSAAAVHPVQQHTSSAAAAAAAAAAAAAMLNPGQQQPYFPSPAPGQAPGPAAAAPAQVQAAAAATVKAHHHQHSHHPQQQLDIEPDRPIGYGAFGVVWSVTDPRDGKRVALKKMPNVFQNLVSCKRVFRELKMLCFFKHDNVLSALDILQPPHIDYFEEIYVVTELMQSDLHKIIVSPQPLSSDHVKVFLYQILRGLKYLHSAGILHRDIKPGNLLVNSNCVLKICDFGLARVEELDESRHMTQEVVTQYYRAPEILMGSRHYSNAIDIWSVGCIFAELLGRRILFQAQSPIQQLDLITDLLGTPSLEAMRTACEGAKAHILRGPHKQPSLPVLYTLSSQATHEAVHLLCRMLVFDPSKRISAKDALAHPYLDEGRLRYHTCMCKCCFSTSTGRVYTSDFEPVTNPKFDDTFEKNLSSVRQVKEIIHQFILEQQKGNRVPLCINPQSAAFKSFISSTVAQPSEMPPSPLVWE

Structure (SMILES)	tested on	assay	test system	conditions	how to read	endpoint	result
CC[C@H](C)[C@H](NC(=O)[C@H](CC(C)C)NC(=O)[C@H](CCCCN)NC(=O)[C@H](CCCCN)NC(=O)[C@H](CCCCN)NC(=O)[C@H](CCCCN)NC(=O)[C@H](CC(C)C)NC(=O)[C@@H](NC(=O)[C@@H](NC(=O)[C@@H](NC(=O)[C@H](CC(C)C)NC(=O)[C@H](CCCNC(=N)N)NC(=O)[C@H](CO)NC(=O)[C@@H](N)CO)C(C)C)[C@@H](C)CC)[C@@H](C)CC)C(=O)N[C@@H](CO)C(=O)N[C@@H](CCCCN)C(=O)N[C@@H](CCCCN)C(=O)N[C@@H](CCCCN)C(=O)N[C@@H](CCCCN)C(N)=O	Acinetobacter baumannii, Enterococcus faecalis	–	–	–	–	MIC range	4 to 8 µM (≈ 8.95 to 17.9 µg/mL)
OC(Cn1cncn1)(Cn1cncn1)c1ccc(F)cc1F	Saccharomyces cerevisiae	cell growth	Pdr5 deleted, empty vector	2^-1.737 µg/mL	–	OD600	0.669 and 0.584 and 0.572
CS(=O)(=O)Nc1ncn(-c2cc(F)c(COc3ccc(OS(=O)(=O)F)cc3)c(F)c2)n1	Mycobacterium tuberculosis	–	non-replicating persistent culture	20 µM, 100-day-old culture	–	CFU reduction	1.1 log10 CFU
COc1cc(Cc2cnc(N)nc2N)cc(OC)c1OC	Salmonella enterica	–	–	20 h, pH 7	–	MIC	0.25 µg/mL (≈ 0.861 µM)
Nc1ncnc2c1ncn2[C@@H]1O[C@@H]2COP(=O)(O)O[C@H]3[C@@H](O)[C@H](n4cnc5c(=O)[nH]cnc54)O[C@@H]3COP(=O)(O)O[C@H]2[C@H]1O	HFF-1	RNA sequencing Reactome analysis, measured: Reactome R-HSA-5627123	–	together with: West Nile virus infection	relative to: West Nile virus infected cells, downregulated pathway	pathway fold enrichment	13.5
C[C@H]1CN(c2n[nH]c3nc(N[C@H]4CC[C@H](NS(=O)(=O)CCC(F)(F)F)CC4)ncc23)CCO1	NLK (Homo sapiens, UniProt Q9UBE8)	competitor, Kinobeads competition	HEK293, K562, placenta extract	–	–	Hill slope	0.81
COc1cc(NC(=O)Cn2ccc3cc(F)c(-c4cnn(C)c4)cc32)cc(OC)c1OC	Plasmodium falciparum	parasite growth	Dd2 PfATP4 F156L	–	relative to: parental Dd2	EC50 shift	10 fold
CCC1(c2ccc(N)cc2)CCC(=O)NC1=O (stereo not drawn)	human coronavirus OC43	virus-induced cell killing	MRC-5	maximum over 10 doses	–	maximum inhibition	0.126%
CC[C@H](C)[C@@H]1NC(=O)[C@@H]2CCCN2C(=O)[C@H](CC(C)C)NC(=O)[C@H](CC(C)C)NC(=O)CNC(=O)[C@@H](NC(=O)[C@@H](NC(=O)[C@H](CC(=O)O)NC(=O)CNC(=O)[C@@H](NC(=O)[C@H](C)NC(=O)CNC(=O)[C@H](CCCCN)NC(=O)[C@H](CC(C)C)NC(=O)[C@H](CC(C)C)NC(=O)[C@H](CCCCN)NC(=O)CNC(=O)[C@@H](NC(=O)[C@@H](N)CC(C)C)C(C)C)C(C)C)C(C)C)CSSC[C@@H](C(=O)O)NC1=O	–	RNA-seq, measured: Ly6i mRNA	mouse traumatic brain injury, frontal cortex and hippocampus	dose not given	relative to: TBI plus compound vs TBI	log2 fold change	-5.47
COc1cc(CCC[P+](c2ccccc2)(c2ccccc2)c2ccccc2)c(OC)c2c1OCO2.[I-]	A549	NCI60 SRB	–	–	–	GI50	-5.4 log M
C[C@]12CCC(=O)C(O)=C1CC[C@@H]1[C@@H]2CC[C@]2(C)C(=O)CC[C@@H]12	human coronavirus OC43	virus-induced cell killing	MRC-5	screen	–	maximum inhibition	7.46%
COc1c(CCC[P+](c2ccccc2)(c2ccccc2)c2ccccc2)cc2c(c1OC)OCO2.[I-]	ACHN	SRB	–	–	–	GI50	-5.27 log M
CC1(C)S[C@@H]2[C@H](NC(=O)[C@H](N)c3ccccc3)C(=O)N2[C@H]1C(=O)O	Salmonella enterica	–	–	20 h, pH 7	–	MIC	2 µg/mL (≈ 5.72 µM)
CCOC(=O)C1=C[C@@H](OC(CC)CC)[C@H](NC(C)=O)[C@@H](N)C1	Influenza A virus A/California/07/2009 (H1N1)pdm09	viral replication, plaque reduction	wild type	–	–	IC50	10 to 100 nM
CN(C)[C@@H]1C(O)=C(C(N)=O)C(=O)[C@@]2(O)C(O)=C3C(=O)c4c(O)cccc4[C@@](C)(O)[C@H]3C[C@@H]12	Salmonella enterica	–	–	20 h, pH 7	–	MIC	1 µg/mL (≈ 2.25 µM)
COc1cccc(-c2ccc(CN3CCCC(c4nc5ccc(C)cc5c(=O)[nH]4)C3)cc2)c1 (stereo not drawn)	Vero-E6	CellTiter-Glo ATP	–	72 h, retest 8-point duplicates	relative to: DMSO 0%, hyamine -100%, more negative, more toxic	maximum response	-11.7%
[H]/N=C(/N)N[C@H]1[C@H](O)[C@@H](O)[C@H](O[C@@H]2O[C@@H](C)[C@](O)(C=O)[C@H]2O[C@@H]2O[C@@H](CO)[C@H](O)[C@@H](O)[C@@H]2NC)[C@@H](N/C(N)=N\[H])[C@@H]1O	Salmonella enterica	–	–	20 h, pH 7.2	–	MIC	1020 µg/mL (≈ 1760 µM)
C=C1C[C@@H]2[C@H](CC[C@]3(C)C(=O)CC[C@@H]23)[C@@]2(C)C=CC(=O)C=C12	human coronavirus OC43	virus-induced cell killing	MRC-5	maximum over 10 doses	–	maximum inhibition	0%

For quick reference, copied from above:
Structure (SMILES)	tested on	assay	test system	conditions	how to read	endpoint	result
C=C1C[C@@H]2[C@H](CC[C@]3(C)C(=O)CC[C@@H]23)[C@@]2(C)C=CC(=O)C=C12	human coronavirus OC43	virus-induced cell killing	MRC-5	maximum over 10 doses	–	maximum inhibition	0%
COc1cc(Cc2cnc(N)nc2N)cc(OC)c1OC	Salmonella enterica	–	–	20 h, pH 7	–	MIC	0.25 µg/mL (≈ 0.861 µM)
C[C@]12CCC(=O)C(O)=C1CC[C@@H]1[C@@H]2CC[C@]2(C)C(=O)CC[C@@H]12	human coronavirus OC43	virus-induced cell killing	MRC-5	screen	–	maximum inhibition	7.46%
